Measured values of several laboratories.
Parts stem from different laboratories: compare values within a part only.

Set 1
Cell line: HEK-293T-ACE2
Tested at: concentration not given
Relative to: vehicle
SMILES	cell number [%]
CCOc1cc([C@@H](CS(C)(=O)=O)N2C(=O)c3cccc(NC(C)=O)c3C2=O)ccc1OC	94.1
Cc1cc(Nc2ncc(Cl)c(Nc3ccccc3S(=O)(=O)C(C)C)n2)c(OC(C)C)cc1C1CCNCC1	93.7
CS(=O)(=O)c1ccc(C(=O)Nc2ccc(Cl)c(-c3ccccn3)c2)c(Cl)c1	98.2
Nc1nc2[nH]cc(CCc3ccc(C(=O)N[C@@H](CCC(=O)[O-])C(=O)[O-])cc3)c2c(=O)[nH]1.Nc1nc2[nH]cc(CCc3ccc(C(=O)N[C@@H](CCC(=O)[O-])C(=O)[O-])cc3)c2c(=O)[nH]1.O.O.O.O.O.[Na+].[Na+].[Na+].[Na+]	89.7

Set 2
Target: Replicase polyprotein 1ab, polymerase (rep, Severe acute respiratory syndrome coronavirus 2, UniProt P0DTD1)
Observed: enzyme activity
Mode: inhibitor
Tested at: 20 µM
SMILES	inhibition [%]
CC[C@@]1(O)C(=O)OCc2c1cc1n(c2=O)Cc2cc3c(CN(C)C)c(O)ccc3nc2-1	5.14
N#Cc1ccc(Cn2cncc2CN2CCN(c3cccc(Cl)c3)C(=O)C2)cc1	7.51
C[C@@H](O[C@H]1OCCN(Cc2nn(P(=O)(O)O)c(=O)[nH]2)[C@H]1c1ccc(F)cc1)c1cc(C(F)(F)F)cc(C(F)(F)F)c1	42.6
COC1=CC(=O)C[C@@H](C)[C@]12Oc1c(Cl)c(OC)cc(OC)c1C2=O	3.41
O=C(NC1(c2ccccc2)CC1)c1c(CN2CCC(N3CCCCC3)CC2)c(-c2cccc(C(F)(F)F)c2)nc2cc(Br)ccc12	-0.9
c1ccc(C2CC2)c(OCC2=NCCN2)c1	-20.1
CC(=O)N(c1onc(C)c1C)S(=O)(=O)c1ccc(N)cc1	-4.62
Cc1[nH]c2ccc(O)cc2c1CCN	-10.3
O=C(Nc1ccc(C(=O)O)c(O)c1)c1ccccc1	-3.87
O=C(O)c1ccc(S(=O)(=O)N(Cl)Cl)cc1	27.9
CC1(C)Cc2c(-c3ccccc3)c(-c3ccc(Cl)cc3)c(CC(=O)O)n2C1	-7.39
COc1ccc(CCN(C)CCCOc2ccc(S(=O)(=O)c3c(C(C)C)c4ccccc4n3C)cc2)cc1OC	-3.04
CCCc1nn(C)c2c(=O)[nH]c(-c3cc(S(=O)(=O)N4CCN(C)CC4)ccc3OCC)nc12	-5.22
CC(C)n1cnc2c(NCCc3ccc(O)cc3)nc(-c3csc4ccccc34)nc21	2.51
OC[C@@H](O)[C@@H](O)[C@H](O)[C@H](O)CO	1.07
CC(C)Nc1nc2cc(Cl)c(Cl)cc2n1[C@H]1O[C@@H](CO)[C@H](O)[C@@H]1O	0.77
CC(C)=CCC[C@](C)(O)[C@@H]1CC=C(C)CC1	-0.69
COC(=O)[C@H]1[C@H]2C[C@@H]3c4[nH]c5cc(OC)ccc5c4CCN3C[C@H]2C[C@@H](OC(=O)c2cc(OC)c(OC)c(OC)c2)[C@@H]1OC	-3.65
C[C@]1(COc2ccc(N3CCC(Oc4ccc(OC(F)(F)F)cc4)CC3)cc2)Cn2cc([N+](=O)[O-])nc2O1	17.4

Set 3
Target: Protein C-ets-1 (ETS1, Homo sapiens, UniProt P14921, residues 1-441, Y397A, full length assumed)
Chain of UniProt P14921 (whole entry, unmodified, looked up): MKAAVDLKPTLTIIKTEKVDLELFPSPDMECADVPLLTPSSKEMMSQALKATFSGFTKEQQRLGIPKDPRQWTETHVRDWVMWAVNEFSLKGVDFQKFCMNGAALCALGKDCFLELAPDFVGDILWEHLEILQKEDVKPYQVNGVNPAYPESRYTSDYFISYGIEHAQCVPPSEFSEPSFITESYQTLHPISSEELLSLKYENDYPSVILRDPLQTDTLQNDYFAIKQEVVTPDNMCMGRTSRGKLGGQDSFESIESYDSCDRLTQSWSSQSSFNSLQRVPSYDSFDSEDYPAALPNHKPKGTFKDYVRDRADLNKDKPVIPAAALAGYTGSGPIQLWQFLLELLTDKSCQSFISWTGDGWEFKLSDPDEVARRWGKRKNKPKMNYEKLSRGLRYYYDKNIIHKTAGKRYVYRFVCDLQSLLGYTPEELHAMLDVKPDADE
Technique: protein-binding microarray
Form: double-stranded DNA, one strand shown
Medium: in vitro
Tested at: not given
Notes: k-mer, scored over probes, only values ≥0.25
Reading: higher = stronger binding
Oligonucleotide	E-score
ACGGAAAT	0.315
GTGCAAAC	0.28
ACACACCA	0.325
GCAATACA	0.275

Set 4
Target: Centromere-binding protein 1, full length, His-tagged (CBF1, Saccharomyces cerevisiae, UniProt P17106, residues 1-351)
Chain of UniProt P17106 (whole entry, looked up): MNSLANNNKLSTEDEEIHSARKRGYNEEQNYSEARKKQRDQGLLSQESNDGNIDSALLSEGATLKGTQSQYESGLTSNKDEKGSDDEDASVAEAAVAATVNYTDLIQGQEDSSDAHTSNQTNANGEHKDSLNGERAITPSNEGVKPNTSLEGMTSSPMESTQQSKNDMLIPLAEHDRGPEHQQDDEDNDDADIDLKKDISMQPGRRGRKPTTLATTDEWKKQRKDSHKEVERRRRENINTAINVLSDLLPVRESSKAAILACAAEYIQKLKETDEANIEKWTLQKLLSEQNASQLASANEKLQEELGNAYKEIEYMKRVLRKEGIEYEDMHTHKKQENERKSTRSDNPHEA
Technique: competition protein-binding microarray
Form: double-stranded DNA, one strand shown
Medium: in vitro
Tested at: 2 µM
Notes: whole 60-bp probe, lowest competitor level
With: Pho4 competitor, 0.05 µM
Reading: higher = stronger binding
Constant ends, left off below: … GTCTTGATTCGCTTGACGCTGCTG
Oligonucleotide	fluorescence intensity
CAGCAACTTAGTTTGCACGTGGCCGTCCTCTGTGTG	1420 a.u.
TTTTGTTGTTATATTCACGTGCCAGTTTGCTTTTAT	1650 a.u.
GTTCTTACAAACAGGAACATTAGCATCATTGGATAC	72.4 a.u.
TGCTTCGTTTTTTGCCACGTGTCGGATCTGGCCTAT	1410 a.u.
TCCAATGGTTCGAACCATGTGGAAGAAGATGCAGAA	77 a.u.
AACCAGTCCAAAAGGTACGTGCAATAAAAGAAGTTG	87.4 a.u.
CCTGCTGAGCTCAGCCATGCGTCTTACTGCCTGGTG	62.9 a.u.
GCTCATAAAACCATGCGCGTGTTTTTCTTCCACGGC	110 a.u.

Set 5
Target: Replicase polyprotein 1ab, main protease (rep, Severe acute respiratory syndrome coronavirus 2, UniProt P0DTD1)
Observed: enzyme activity
Mode: inhibitor
Tested at: 20 µM
Notes: hit confirmation, no DTT
SMILES	inhibition [%]
C=C1c2cccc(O)c2C(=O)C2=C(O)[C@]3(O)C(=O)C(C(N)=O)=C(O)[C@@H](N(C)C)[C@@H]3[C@@H](O)[C@H]12	91
Cc1ccc(S(=O)(=O)N[C@@H](Cc2ccccc2)C(=O)CCl)cc1	108
CCN(CC)C(=S)[S-].O.O.O.[Na+]	89.9
